Experimental data from different studies.
Numbers after ± are the reported error.

`c1cc(-c2ccc3ncnc(Nc4ncco4)c3c2)nc(N2C[C@H]3C[C@@H]2CO3)n1` has a thermodynamic solubility of 48 µM (0.1 M phosphate buffer; pH 7.4, 25 °C).
With `CCN(CC)C(=S)SSC(=S)N(CC)CC` the thermodynamic solubility was 85.5 ± 3.27 mg/g (shake-flask; Cremophor ELP; 37 °C, water up to 0.5% w/w).
The thermodynamic solubility of `N[C@H](CNc1nc(-c2ccncc2)nc2sc3c(c12)CCCC3)Cc1ccccc1` is reported as 23100 µM (aqueous medium; trihydrochloride salt).
For `Cc1nc(Nc2ncnc3ccc(-c4cccc(N5CCOCC5)c4)cc23)oc1C`, the thermodynamic solubility was 0.2 µM (0.1 M phosphate buffer; pH 7.4, 25 °C).
`CCc1ccccc1NC(=O)CSc1nnc(-c2cccc(OC)c2)n1C` has a thermodynamic solubility of 87.1 µM (aqueous buffer; pH 7.4).
`CC(C)(Oc1ccc(C(=O)c2ccc(Cl)cc2)cc1)C(=O)O` gave a thermodynamic solubility of 39.5 ± 0.42 mg/g (shake-flask; Cremophor ELP; 37 °C, water up to 0.5% w/w).
`CN1CCC(Nc2ncnc3ccc(-c4cccc(N5CCOCC5)c4)cc23)CC1` has a thermodynamic solubility of 930 µM (0.1 M phosphate buffer; pH 7.4, 25 °C).
`COc1ccccc1NC(=O)CSc1nncn1C` has a thermodynamic solubility of over 12100 µM (aqueous buffer; pH 7.4).
`COc1ccc2c(c1OC)C(=O)O[C@@H]2[C@H]1c2c(cc3c(c2OC)OCO3)CCN1C` gave a thermodynamic solubility of 12.8 ± 0.4 mg/g (shake-flask; Cremophor ELP; 37 °C, water up to 0.5% w/w).
`COc1c(-c2ccc3cc(NS(C)(=O)=O)ccc3c2)cc(-n2ccc(=O)[nH]c2=O)cc1C(C)(C)C` gave a thermodynamic solubility of -6.7 log S (50 mM sodium phosphate; 48 h, pH 7.4, 25 °C, crystalline free acid).
`Cn1cc(Nc2ncnc3ccc(-c4cccc(N5CCOCC5)c4)cc23)cn1` has a thermodynamic solubility of 1.5 µM (0.1 M phosphate buffer; pH 7.4, 25 °C).
`CC1(CNC(=O)[C@H](CN)NC(=O)c2ccc(-c3ccccc3)cc2)NC(=O)NC1=O` (stereo partly drawn) gave a thermodynamic solubility of 6230 µM (aqueous buffer; pH 7.4).
For `O=C(Nc1ccc([N+](=O)[O-])cc1Cl)c1cc(Cl)ccc1O`, the thermodynamic solubility was 47.9 ± 1.24 mg/g (shake-flask; Cremophor ELP; 37 °C, water up to 0.5% w/w).
With `CN1CCN(c2cccc(-c3ccc4ncnc(Nc5ccc([N+](=O)[O-])c(C(F)(F)F)c5)c4c3)c2)CC1` the thermodynamic solubility was 2 µM (0.1 M phosphate buffer; pH 7.4, 25 °C).
`O=C(CCCN1CCC(O)(c2ccc(Cl)cc2)CC1)c1ccc(F)cc1` gave a thermodynamic solubility of 17.3 ± 0.82 mg/g (shake-flask; Cremophor ELP; 37 °C, water up to 0.5% w/w).
With `C[C@H]1CN(c2cccc(-c3ccc4ncnc(Nc5ncco5)c4c3)c2)CCO1` the thermodynamic solubility was 6 µM (0.1 M phosphate buffer; pH 7.4, 25 °C).
With `Clc1ccccc1C(c1ccccc1)(c1ccccc1)n1ccnc1` the thermodynamic solubility was 33.2 ± 3.7 mg/g (shake-flask; Cremophor ELP; 37 °C, water up to 0.5% w/w).
`CSc1ccc(S(=O)(=O)NCc2ccccn2)cc1` has a thermodynamic solubility of 207 µM (aqueous buffer; pH 7.4).
For `CCCCN(CCCC)CCC(O)c1cc2c(Cl)cc(Cl)cc2c2cc(C(F)(F)F)ccc12` (stereo not drawn), the thermodynamic solubility was 38.3 ± 1.6 mg/g (shake-flask; Cremophor ELP; 37 °C, water up to 0.5% w/w).
`COc1cc([N+](=O)[O-])ccc1NC(=O)CN1CCOCC1` has a thermodynamic solubility of 15.8 µM (aqueous buffer; pH 7.4).
`Cc1ccc(Nc2ncnc3ccc(-c4cccc(N5CCOCC5)c4)cc23)cc1` has a thermodynamic solubility of 0.9 µM (0.1 M phosphate buffer; pH 7.4, 25 °C).
The thermodynamic solubility of `O=C(Cn1ccc([N+](=O)[O-])n1)N1CCCc2ccccc21` is reported as 294 µM (aqueous buffer; pH 7.4).
With `C[C@@H]1COCCN1c1cccc(-c2ccc3ncnc(Nc4ncco4)c3c2)c1` the thermodynamic solubility was 23 µM (0.1 M phosphate buffer; pH 7.4, 25 °C).
`Cc1cc(C)c(S(=O)(=O)NCc2ccccn2)cc1C` gave a thermodynamic solubility of 54.1 µM (aqueous buffer; pH 7.4).
`C#C[C@]1(O)CC[C@H]2[C@@H]3CCc4cc(O)ccc4[C@H]3CC[C@@]21C` has a thermodynamic solubility of 144 ± 14.4 mg/g (shake-flask; Cremophor ELP; 37 °C, water up to 0.5% w/w).
With `CCn1c(SCC(=O)Nc2ccccc2OC)nnc1-c1ccco1` the thermodynamic solubility was 43.5 µM (aqueous buffer; pH 7.4).
`CC[C@H](C)C(=O)N1CCC(NC(=O)Nc2ccc(OC(F)(F)F)c(F)c2)CC1` gave a thermodynamic solubility of 13.9 mg/mL (PEG 300).

For quick reference, copied from above:
`COc1cc([N+](=O)[O-])ccc1NC(=O)CN1CCOCC1` has a thermodynamic solubility of 15.8 µM (aqueous buffer; pH 7.4).
`Cc1ccc(Nc2ncnc3ccc(-c4cccc(N5CCOCC5)c4)cc23)cc1` has a thermodynamic solubility of 0.9 µM (0.1 M phosphate buffer; pH 7.4, 25 °C).
The thermodynamic solubility of `O=C(Cn1ccc([N+](=O)[O-])n1)N1CCCc2ccccc21` is reported as 294 µM (aqueous buffer; pH 7.4).
With `C[C@@H]1COCCN1c1cccc(-c2ccc3ncnc(Nc4ncco4)c3c2)c1` the thermodynamic solubility was 23 µM (0.1 M phosphate buffer; pH 7.4, 25 °C).
